Measured values gathered from unrelated publications.
Compare with care: the assays were run in different laboratories.
Organism: Candida albicans

SMILES	read-out	technique	strain	time	MIC
NCCOCCOCCNC(=O)Cc1ccc(Nc2nc(NCc3ccc(F)cc3)nc(NCC3CCCCC3)n2)cc1	microbial growth	broth dilution	SC5314		1 mg/L
N=C(N)NCCC[C@@H]1NC(=O)[C@H](CCCNC(=N)N)NC(=O)[C@H](CCCNC(=N)N)NC(=O)[C@@H](CCCNC(=N)N)NC(=O)[C@H](Cc2ccc3ccccc3c2)NC(=O)[C@H](Cc2ccc3ccccc3c2)NC(=O)[C@H](Cc2ccc3ccccc3c2)NC1=O			SC5314		16 mg/L
COC1=CC(c2ccc[nH]2)=NC1=CNC(C)(C)C.Cl		broth microdilution	ATCC 90028	24 h	64 mg/L
CC[C@H]1OC(=O)[C@H](C)[C@@H](OC(=O)Cc2cccc([N+](=O)[O-])c2)[C@H](C)[C@@H](O[C@@H]2O[C@H](C)C[C@H](N(C)C)[C@H]2O)[C@](C)(OC)C[C@@H](C)C(=O)[C@H](C)[C@@H](O)[C@]1(C)O	microbial growth		ATCC90028		> 32 mg/L
COc1ccc(/N=N/C(=S)N2CCCCC2)cc1	microbial growth	broth dilution	ATCC10231	24 h	> 50 µM
CC[C@H]1OC(=O)[C@H](C)[C@@H](OC(=O)Cc2c(F)cccc2F)[C@H](C)[C@@H](O[C@@H]2O[C@H](C)C[C@H](N(C)C)[C@H]2O)[C@](C)(OC)C[C@@H](C)C(=O)[C@H](C)[C@@H](O)[C@]1(C)O	microbial growth		ATCC90028		> 32 mg/L
O=C(COP(=O)(O)O)C(O)C(O)C(O)COP(=O)(O)O (stereo not shown)	microbial growth	broth dilution	SC5314	24 h	> 128 mg/L
CCCC(C)Oc1cccc(NC(=O)c2cccnc2)c1 (stereo not shown)					4 mg/L
N=C(N)NCCC[C@@H]1NC(=O)[C@H](CCCNC(=N)N)NC(=O)[C@@H](CCCNC(=N)N)NC(=O)[C@@H](CCCNC(=N)N)NC(=O)[C@@H](C(c2ccccc2)c2ccccc2)NC(=O)[C@H](Cc2c[nH]c3ccccc23)NC(=O)[C@@H](C(c2ccccc2)c2ccccc2)NC1=O	fungal growth				16 mg/L
COc1ccc(/N=N/C(=S)N2CCN(C)CC2)cc1	microbial growth	broth dilution	ATCC10231	24 h	> 50 µM
COC1=CC(c2ccc[nH]2)=NC1=CNC12CC3CC(CC(C3)C1)C2.Cl		broth microdilution	ATCC 90028	24 h	8 mg/L
CC[C@H]1OC(=O)[C@H](C)[C@@H](OC(=O)Cc2ccc(N)cc2)[C@H](C)[C@@H](O[C@@H]2O[C@H](C)C[C@H](N(C)C)[C@H]2O)[C@](C)(OC)C[C@@H](C)C(=O)[C@H](C)[C@@H](O)[C@]1(C)O	microbial growth		ATCC90028		> 32 mg/L
O=C(O[C@@H]1Cc2c(O)cc(O)cc2O[C@@H]1c1cc(O)c(O)c(O)c1)c1cc(O)c(O)c(O)c1	microbial growth	broth dilution	SC5314	24 h	16 mg/L
CC[C@H]1OC(=O)[C@H](C)[C@@H](OC(=O)c2ccc(N)cc2)[C@H](C)[C@@H](O[C@@H]2O[C@H](C)C[C@H](N(C)C)[C@H]2O)[C@](C)(OC)C[C@@H](C)C(=O)[C@H](C)[C@@H](O)[C@]1(C)O	microbial growth		ATCC90028		> 32 mg/L
CCc1cnn2c(NCc3ccc[n+]([O-])c3)cc(N3CCCCC3CCO)nc12 (stereo not shown)	microbial growth	broth dilution	SC5314		> 128 mg/L
CC[C@H]1OC(=O)[C@H](C)[C@@H](OC(=O)Cc2c(F)cc([N+](=O)[O-])cc2F)[C@H](C)[C@@H](O[C@@H]2O[C@H](C)C[C@H](N(C)C)[C@H]2O)[C@](C)(OC)C[C@@H](C)C(=O)[C@H](C)[C@@H](O)[C@]1(C)O	microbial growth		ATCC90028		> 32 mg/L
N=C(N)NCCC[C@@H]1NC(=O)[C@@H](CCCNC(=N)N)NC(=O)[C@H](CCCNC(=N)N)NC(=O)[C@@H](C(c2ccccc2)c2ccccc2)NC(=O)[C@@H](C(c2ccccc2)c2ccccc2)NC(=O)[C@@H](C(c2ccccc2)c2ccccc2)NC(=O)[C@@H](CCCNC(=N)N)NC1=O	fungal growth				8 mg/L
O=c1c(O)c(-c2ccc(O)c(O)c2)oc2cc(O)c(O)c(O)c12	microbial growth	broth dilution	SC5314		16 mg/L
CC[C@H]1OC(=O)[C@H](C)[C@@H](OC(=O)Cc2ccc([N+](=O)[O-])cc2)[C@H](C)[C@@H](O[C@@H]2O[C@H](C)C[C@H](N(C)C)[C@H]2O)[C@](C)(OC)C[C@@H](C)C(=O)[C@H](C)[C@@H](O)[C@]1(C)O	microbial growth		ATCC90028		> 32 mg/L
